Earlier results as cited in several papers.
Numbered parts are unrelated; values within a part may stem from several laboratories.
Chain of UniProt O00408 (whole entry, looked up): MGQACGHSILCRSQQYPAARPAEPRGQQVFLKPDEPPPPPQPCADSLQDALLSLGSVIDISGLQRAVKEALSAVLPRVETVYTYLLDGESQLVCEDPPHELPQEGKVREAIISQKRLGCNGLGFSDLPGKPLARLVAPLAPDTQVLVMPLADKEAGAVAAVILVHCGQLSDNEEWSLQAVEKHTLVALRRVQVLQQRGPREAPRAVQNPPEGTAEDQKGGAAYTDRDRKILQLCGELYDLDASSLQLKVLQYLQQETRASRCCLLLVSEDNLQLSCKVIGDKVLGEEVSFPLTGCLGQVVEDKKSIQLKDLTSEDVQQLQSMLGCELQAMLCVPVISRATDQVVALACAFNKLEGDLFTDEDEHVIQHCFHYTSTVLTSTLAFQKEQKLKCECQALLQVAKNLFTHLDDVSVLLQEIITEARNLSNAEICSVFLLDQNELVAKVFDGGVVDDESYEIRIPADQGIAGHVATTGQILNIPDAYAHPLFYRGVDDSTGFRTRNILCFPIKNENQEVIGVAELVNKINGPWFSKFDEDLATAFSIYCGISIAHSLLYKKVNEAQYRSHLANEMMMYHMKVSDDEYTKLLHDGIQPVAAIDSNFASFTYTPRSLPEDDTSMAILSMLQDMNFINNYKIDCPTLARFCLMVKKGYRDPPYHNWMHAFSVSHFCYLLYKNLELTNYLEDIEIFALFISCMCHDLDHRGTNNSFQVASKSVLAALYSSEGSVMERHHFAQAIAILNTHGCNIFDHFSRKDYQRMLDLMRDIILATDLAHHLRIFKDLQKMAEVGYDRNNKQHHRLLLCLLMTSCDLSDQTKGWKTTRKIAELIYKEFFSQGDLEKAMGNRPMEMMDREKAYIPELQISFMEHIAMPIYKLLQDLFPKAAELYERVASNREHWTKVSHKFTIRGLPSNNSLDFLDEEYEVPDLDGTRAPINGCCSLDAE

Set 1
Organism: Cryptosporidium parvum
Technique: high-throughput screen
Concentration: concentration not given
SMILES	activity
O=C1CC2(CCCC2)CC(=O)N1CCCCN1CCN(c2ncccn2)CC1	inactive
NCc1ccc(S(N)(=O)=O)cc1	inactive
CC[C@@H](CO)NCCN[C@@H](CC)CO	inactive
COCC1=C(C(=O)OC(C)OC(=O)OC(C)C)N2C(=O)[C@@H](NC(=O)/C(=N\OC)c3csc(N)n3)[C@H]2SC1 (some centres unmarked)	inactive
C[C@H]1COc2c(N3CCN(C)CC3)c(F)cc3c(=O)c(C(=O)O)cn1c23	inactive
C[N+]1(C)CCC(OC(=O)C(O)(c2ccccc2)C2CCCC2)C1 (centres unmarked)	inactive
CC(O)CO.N[C@@H](C(=O)N[C@@H]1C(=O)N2C(C(=O)O)=C(CSc3cn[nH]n3)CS[C@H]12)c1ccc(O)cc1	inactive
C#C[C@]1(O)CC[C@H]2[C@@H]3CCC4=CC(=O)CC[C@@H]4[C@H]3CC[C@@]21C	inactive
CC1Cc2ccccc2N1NC(=O)c1ccc(Cl)c(S(N)(=O)=O)c1 (centres unmarked)	inactive
Nc1ccc2cn[nH]c2c1	inactive
C[C@@H]1C[C@H]2[C@@H]3C[C@H](F)C4=CC(=O)C(Cl)=C[C@]4(C)[C@@]3(F)[C@@H](O)C[C@]2(C)[C@@]1(O)C(=O)CO	inactive
C[n+]1ccccc1/C=N/O	inactive
O=C(O[C@H]1[C@H](Oc2ccccc2COC(=O)C2(O)C=CCCC2=O)O[C@H](CO)[C@@H](O)[C@@H]1O)c1ccccc1 (some centres unmarked)	inactive
OC[C@H]1O[C@@H](Oc2cc(O)cc(/C=C/c3ccc(O)cc3)c2)[C@H](O)[C@@H](O)[C@@H]1O	inactive
Oc1ncnc2[nH]ncc12	inactive
Cc1occc(=O)c1O	inactive
CCCN(CCC)S(=O)(=O)c1ccc(C(=O)O)cc1	inactive
CC(C)(C)C(O)/C=C/c1ccc2c(c1)OCO2 (centres unmarked)	inactive
COCCCOc1ccnc(C[S+]([O-])c2nc3ccccc3[nH]2)c1C (centres unmarked)	inactive
Cl.O=C1[C@H]2CCCC[C@H]2C(=O)N1CCCCN1CCN(c2nsc3ccccc23)CC1	inactive
CCc1ccc(CCOc2ccc(CC3SC(=O)NC3=O)cc2)nc1 (centres unmarked)	inactive
CCOc1cc(N)c(Cl)cc1C(=O)NCC1CN(Cc2ccc(F)cc2)CCO1 (centres unmarked)	inactive
COc1cc(NC(C)CCCN)c2ncccc2c1.O=P(O)(O)O.O=P(O)(O)O (centres unmarked)	inactive
CN(CCO)CC(O)Cn1cnc2c1c(=O)n(C)c(=O)n2C.O=C(O)c1cccnc1 (centres unmarked)	inactive
Cl.Nc1nc2ccc(OC(F)(F)F)cc2s1	inactive

Mixed results
SMILES	tested on	assay	test system	setting	scale	measurement	result
COc1ccc(CNc2c(CO)cnc3c(C4CC4)cc(C#N)cc23)cc1Cl	PDE2A (Homo sapiens, UniProt O00408)	–	–	–	–	IC50	> 10 µM
O=c1c2ccccc2[se]n1-c1ccccc1	dengue virus NS3 helicase	inhibitor	–	concentration not given	–	helicase inhibition	no inhibition
CC(C)(O/N=C(\C(=O)N[C@@H]1C(=O)N2C(C(=O)[O-])=C(C[n+]3ccccc3)CS[C@H]12)c1csc(N)n1)C(=O)O	Klebsiella pneumoniae	–	clinical isolate RKI-No_138/16	–	–	MIC	≤ 2 µg/mL
CCN(CC)CCCCNc1ncc2cc(-c3cc(OC)cc(OC)c3)c(NC(=O)NC(C)(C)C)nc2n1	EphA2	inhibitor	–	–	–	IC50	> 1 µM
CC(C)(C)NC(=O)[C@H]1CC[C@H]2[C@@H]3CC[C@H]4NC(=O)C=C[C@]4(C)[C@H]3CC[C@]12C	–	–	human, plasma	concentration not given	–	Cmax	220 nM
CNS(=O)(=O)Nc1nccc(Cc2c(C)c3ccc(Oc4ncccn4)cc3oc2=O)c1F	–	–	human	oral	–	Tmax	1 to 2 h
CC(C)NCC(O)COc1ccc(CC(N)=O)cc1 (centres unmarked)	dopamine transporter	–	–	–	–	IC50	> 10 µM
CNC(=O)c1ccc(Nc2ncc(C(F)(F)F)c(NCc3nccnc3N(C)S(C)(=O)=O)n2)cc1	–	–	patients with KRAS mutant NSCLC	dose not given	–	median progression-free survival	46 days
Cc1cc(-n2nc(Cc3cc(F)cc(C(F)(F)F)c3)nc2C)ccc1C(N)=O	GPR52 human	cellular activity	–	–	–	EC50	0.093 µM
Nc1ccn([C@@H]2O[C@H](CO)[C@@H](O)[C@@H]2O)c(=O)n1	dopamine transporter	–	–	–	–	IC50	> 10 µM
Cc1ccccc1Oc1cc(-n2c(=O)cc(C(F)(F)F)[nH]c2=O)c2ccccc2c1	BCAT2	biochemical activity	–	–	–	IC50	10.8 µM
O=C(O)C(Cc1ccc2c(c1)oc1ccccc12)NCP(=O)(O)O (centres unmarked)	ECE1	enzyme activity, inhibitor	–	–	–	IC50	0.022 µM
CC/C(=C(\c1ccc(O)cc1)c1ccc(OCCNC)cc1)c1ccccc1	–	–	human CYP2D6 homozygous null	dose not given	relative to: CYP2D6 wild type	concentration decrease	74%
Cc1nc(Cc2cccc(C(F)(F)F)c2)sc1-c1ccc(C(N)=O)nc1	GPR52 human	cellular activity	–	–	–	EC50	1 µM
Cc1c(C(=O)O)ccc2c3n(nc12)[C@@H]1[C@H](C3)N(CC2CC2)[C@@]2(C(=O)Nc3cc(Cl)ccc32)[C@H]1c1cccc(Cl)c1F	–	–	human	–	–	half-life	30 to 60 h
CN(C)C/C=C/C(=O)Nc1cc2c(Nc3ccc(F)c(Cl)c3)ncnc2cc1O[C@H]1CCOC1	–	–	human	concentration not given, clinical	–	diarrhoea incidence	96%
CN(CCN)Cc1csc(-c2ccc(C(=N)N)nc2)n1	PRMT6	–	–	–	–	IC50	29.7 µM
Fc1ccc([C@@H]2CCNC[C@H]2COc2ccc3c(c2)OCO3)cc1	P-glycoprotein	–	–	–	–	IC50	30 µM
COc1ccccc1OCC(O)CN1CCN(CC(=O)Nc2c(C)cccc2C)CC1 (centres unmarked)	–	–	human adults	immediate-release preparation	–	elimination half-life	1.4 to 1.9 h
CC(C)NC(=O)COc1cccc(-c2nc(Nc3ccc4[nH]ncc4c3)c3ccccc3n2)c1	–	–	human	concentration not given, fed	relative to: fasted	exposure increase	~2 fold
CC1(C)S[C@@H]2[C@H](NC(=O)[C@H](N)c3ccccc3)C(=O)N2[C@H]1C(=O)O	Escherichia coli	–	clinical isolate RKI-No_602/16	–	–	MIC	≤ 4 µg/mL
CCc1cnn2c(NCc3ccc[n+]([O-])c3)cc(N3CCCC[C@H]3CCO)nc12	HKDC1 protein kinase activity	refers to: RBBP5 phosphorylation	–	30 µM	–	inhibition	inhibited
Cn1c(=O)oc2ccc(-c3ccc(C[C@@H](C#N)NC(=O)[C@@H]4CNCCCO4)cc3)cc21	neprilysin	–	healthy human, blood	25 mg once daily	–	inhibition	49%
CCOCC1(COCC)CCC(c2n[nH]cc2CN(C)CCNC)CC1	–	–	DLBCL and pancreatic adenocarcinoma, mouse xenograft	dose not given	–	tumour growth	inhibited
CN1CCN(c2ccc3nc(-c4c(N)c5c(F)cccc5[nH]c4=O)[nH]c3c2)CC1	Raf	inhibitor	–	–	–	IC50	> 25 µM

For quick reference, copied from above (mixed results):
SMILES	tested on	assay	test system	setting	scale	measurement	result
O=c1c2ccccc2[se]n1-c1ccccc1	dengue virus NS3 helicase	inhibitor	–	concentration not given	–	helicase inhibition	no inhibition
Cc1ccccc1Oc1cc(-n2c(=O)cc(C(F)(F)F)[nH]c2=O)c2ccccc2c1	BCAT2	biochemical activity	–	–	–	IC50	10.8 µM
CN(C)C/C=C/C(=O)Nc1cc2c(Nc3ccc(F)c(Cl)c3)ncnc2cc1O[C@H]1CCOC1	–	–	human	concentration not given, clinical	–	diarrhoea incidence	96%
